Measurements from different studies.
Parts stem from different laboratories: compare values within a part only. Substitutions count along the parent as printed.

Block 1
Target: Interferon regulatory factor 7, full length, phosphomimetic (IRF7, Homo sapiens, UniProt Q92985, residues 1-503, S471D/S472D/S475D/S476D/S477D/S483D/S484D/S487D)
Chain of UniProt Q92985 (whole entry, unmodified, looked up): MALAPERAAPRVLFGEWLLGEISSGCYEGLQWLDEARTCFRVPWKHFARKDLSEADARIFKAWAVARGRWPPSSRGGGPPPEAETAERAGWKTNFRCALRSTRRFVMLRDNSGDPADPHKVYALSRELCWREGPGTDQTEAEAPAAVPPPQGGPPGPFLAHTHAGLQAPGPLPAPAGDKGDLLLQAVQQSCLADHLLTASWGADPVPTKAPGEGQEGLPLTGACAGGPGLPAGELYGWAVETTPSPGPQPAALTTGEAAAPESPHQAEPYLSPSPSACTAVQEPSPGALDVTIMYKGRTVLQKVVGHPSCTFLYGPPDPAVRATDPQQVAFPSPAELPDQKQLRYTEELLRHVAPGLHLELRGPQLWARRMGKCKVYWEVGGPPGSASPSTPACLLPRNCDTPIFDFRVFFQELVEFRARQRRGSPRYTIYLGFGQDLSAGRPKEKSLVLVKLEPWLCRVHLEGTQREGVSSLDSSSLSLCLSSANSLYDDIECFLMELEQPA
Technique: protein-binding microarray
Molecule type: double-stranded DNA, one strand shown
Medium: in vitro
Tested at: 2200 nM top
Notes: 60-bp whole probe
With: salmon DNA 0.4 mg/ml
Baseline: random background probes
Reading: higher = stronger binding
Measurement: fitted relative affinity
All sequences stand within: GCCTAGCAC … GTCTTGATTCGCTTGACGCTGCTG
Oligonucleotide = ATAGATATCAGACTGGATTAGTGCTAG; result = -0.0736 z-score
Oligonucleotide = GACGGGCTCGGTATCGGGACGTGCTAG; result = -0.846 z-score
Oligonucleotide = TCAATTTTCTAAATTCCACTGTGCTAG; result = 1.71 z-score
Oligonucleotide = TTAGGTCTCGGTCTTGGTTAGTGCTAG; result = 0.666 z-score
Oligonucleotide = TTAGGGCTCGGTTTCGGTTAGTGCTAG; result = 5.71 z-score
Oligonucleotide = GACGGTCTACTACTGCTGACGTGCTAG; result = 0.337 z-score
Oligonucleotide = TCAGATTTCCACTTTCTACTGTGCTAG; result = 3.34 z-score
Oligonucleotide = TTATATCTCAGTCTCGATTAGTGCTAG; result = 1.09 z-score
Oligonucleotide = TCAAATTTTCAATTCCTACTGTGCTAG; result = 1.26 z-score
Oligonucleotide = TTAGGACTGGGGTTTCGGTTTGTGCTA; result = 7.62 z-score
Oligonucleotide = TCAGTTTTTACTTTCTGACTGTGCTAG; result = 3.71 z-score
Oligonucleotide = GACGGTATCCTTATCCTGATGTGCTAG; result = 0.926 z-score
Oligonucleotide = ATAACACTCTTCTTTTGCTAAGTGCTA; result = 0.964 z-score
Oligonucleotide = TACGGTATCCTTCTCCTGACGTGCTAG; result = 1.55 z-score
Oligonucleotide = TTAGAACTGGAGTTTCGATTAGTGCTA; result = 2.98 z-score
Oligonucleotide = TCACATTTACATTTTAGACTGTGCTAG; result = 1.85 z-score

Block 2
Target: RNA binding protein fox-1 homolog 2, RRM domain, GST-SBP tag (RBFOX2, Homo sapiens, UniProt O43251-10, residues 100-194)
Technique: RNA Bind-n-Seq
Molecule type: RNA
Medium: in vitro
Tested at: 365 nM
Notes: natural RNA segment, single round, ends assumed
Baseline: no-protein control
Reading: higher = stronger binding
Measurement: RBNS enrichment (R)
All sequences stand within: GGGAGUUCUACAGUCCGACGAUC … UGGAAUUCUCGGGUGCCAA
Residues (chain): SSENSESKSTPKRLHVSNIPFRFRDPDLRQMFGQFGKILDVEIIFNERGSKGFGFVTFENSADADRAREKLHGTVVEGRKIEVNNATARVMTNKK
Oligonucleotide = UAGAUAAUGUGUAUCCUAAUAAAAUUGUUCUGCUUGUAUAUGAAAUAUUAAUAUCUACCAACACAUAGACUUCCUAAAAUCGAUAUAUUGCUUGAAUCACACUUUUACUG; result = 1.99
Oligonucleotide = ACCGAGAAAGUAAUUAUAGAGAAAUAAGCUGGUACGUCCAGCUUCAUUACUAUCCCUUGGGCUAACCAGCAAGAAGAUUGUACAUCACAGAACUGGAUGAGCCAAACAGC; result = 0.322
Oligonucleotide = AGUUCUUUUCAAACCCAGUUUCCCUUUUUCAAACUUUAAAACCUGCAUAAUUCUGCAGAUGUCCUAGGGUUUGAGUCAGUAACUUGUGAAUGAAAGUCAUUGGUAUUUGG; result = 0.346
Oligonucleotide = CCGCUGCCAAGGGGGGGAUUGCUCACUUCACGUGCAGUUUGUCCAGUUACUCAGCCCUUUUUAUUUCCUUGUUUGAGAGGUAUGCAACCUUGCCUUUACCCAAACUUUGU; result = 1.91
Oligonucleotide = UGCCUCCUGGGAUCCUCAUCCCCAAUCCUGCUCUUACAUAAACCUUUUUCUUGUUUUAGUAAUUUGUAGUGAUCACCCCCUUCCCUCUGUUGCUGGGACCCAGGAGGAAA; result = 0.565
Oligonucleotide = UUAAGCACUAAAAAUUUUUUCAUAACCUUUCAUAAUAAAGUUUAAUAAUAGGUUUAUUAACUGAAUUUCAUUAGUUUUUUAAAAGUGUUUUUGGUUUGUGUAUAUAUACA; result = 0.798
Oligonucleotide = UUACUGGGAGCCACGUAAAUGGAACCUUGACCAUAUUUCUGCAAUAAACAGUUUAAUUUGUGUCUUUCCACUGGUACAGGGUUGUCUGCUUUGCCCUUGCUCACGUGCAG; result = 1.86
Oligonucleotide = UCACUAGAGGGAAGACCUGGGCAUCCUGCUGGCUCCUCUCUCCGUGGGGCCUGGAGUCUGGUGCUGUUCCCCAGCCAGCCUGGCUGCAGACCUCUCUGGCUGAUACCGCU; result = 0.208

Block 3
Target: CCND1, cyclin fold, Cln2 fusion (human)
Technique: yeast growth competition, sequencing
Medium: yeast
Notes: weak parent motif
Baseline: not given
Reading: higher = stronger binding
Measurement: normalised enrichment score
Parent: GMNC docking peptide (human); KNAKRNLSSEFAN
Change = KPAKRNLSSEFAN [N2P]; result = 0.791
Change = KNAKRNLSSEFQN [A12Q]; result = 0.448
Change = KNSKRNLSSEFAN [A3S]; result = 0.363
Change = KNAKRNLSSYFAN [E10Y]; result = -0.188
Change = KNAKRNLKSEFAN [S8K]; result = 0.234
Change = KNAKRMLSSEFAN [N6M]; result = -0.11
Change = KNAKRNVSSEFAN [L7V]; result = 0.281
Change = KNAPRNLSSEFAN [K4P]; result = 0.274
Change = KNAKRNCSSEFAN [L7C]; result = -0.127
Change = KNKKRNLSSEFAN [A3K]; result = 0.396
Change = KNAKNNLSSEFAN [R5N]; result = 0.145

Mixed results
Molecule = PhoQ, residues 284 288 289 292 302 303 SLCLSL; target = PhoP, residues 12 14 15 18 19 YHFSH (Escherichia coli, UniProt P23836); test = Sort-seq, measured: YFP reporter; system = E. coli; setting = PhoQ-PhoP variant library, with: 10 µM Mg2+; scale = baseline: high Mg2+ state, higher = stronger signaling; measurement = fold induction; result = 2.07

Excerpt of the above (block 1):
Oligonucleotide = TCAAATTTTCAATTCCTACTGTGCTAG; result = 1.26 z-score
Oligonucleotide = TTAGGACTGGGGTTTCGGTTTGTGCTA; result = 7.62 z-score
Oligonucleotide = TCAGTTTTTACTTTCTGACTGTGCTAG; result = 3.71 z-score
Oligonucleotide = GACGGTATCCTTATCCTGATGTGCTAG; result = 0.926 z-score
